Measurements gathered from unrelated publications.
Every numbered part comes from another study and shows a few of its results, in no order. Values joined by “and” are separate records of one study, mostly repeats; a detail may differ. Substitutions count along the parent as printed.
Sequence of UniProt Q00534 (whole entry, looked up): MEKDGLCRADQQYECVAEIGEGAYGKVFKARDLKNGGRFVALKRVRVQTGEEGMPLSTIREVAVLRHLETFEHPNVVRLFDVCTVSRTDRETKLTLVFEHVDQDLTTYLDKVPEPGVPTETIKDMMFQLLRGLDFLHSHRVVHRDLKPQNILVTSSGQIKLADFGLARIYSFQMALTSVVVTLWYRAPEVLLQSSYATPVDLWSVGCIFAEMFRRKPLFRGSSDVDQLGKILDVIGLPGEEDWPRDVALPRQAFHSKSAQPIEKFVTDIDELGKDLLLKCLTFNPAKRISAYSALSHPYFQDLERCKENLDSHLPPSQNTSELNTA

Sample 1 — concentration: 10 µM; quantity: inhibition
SMILES: Cc1cc2c(-c3ccco3)cnc(N[C@H]3CCN(C)C[C@@H]3C(=O)NC3CCCCC3)c2[nH]c1=O
5-hydroxytryptamine receptor 1A (HTR1A, Homo sapiens, UniProt P08908); ligand displacement: 16.9%
Sodium-dependent serotonin transporter (SLC6A4, Homo sapiens, UniProt P31645); cell-free assay: 13.8%
D(1B) dopamine receptor (DRD5, Homo sapiens, UniProt P21918); ligand displacement: 35.4%

Sample 2 — effect on: peptide-MHC binding; form: peptide; concentration: concentration not given; quantity: binding
Target: HLA class I histocompatibility antigen, C alpha chain, allele C*04:01 (Homo sapiens, UniProt P10321)
ILFDRLPIA: inactive
APRGFRAAF: inactive
YYTEDQGQF: inactive
LEARVNLSV: inactive
DTDPLPVVF: inactive
QYDPVAALF: active
CSDETTLYY: inactive
FFIQTDAAI: inactive

Sample 3 — target: CCNF, cyclin fold, Cln2 fusion (human); method: yeast growth competition, sequencing; sample: yeast; notes: strong parent motif; baseline: not given; reading: higher = stronger binding; quantity: normalised enrichment score
Starting sequence: viral docking peptide; YKVKRRLVFGADD; partner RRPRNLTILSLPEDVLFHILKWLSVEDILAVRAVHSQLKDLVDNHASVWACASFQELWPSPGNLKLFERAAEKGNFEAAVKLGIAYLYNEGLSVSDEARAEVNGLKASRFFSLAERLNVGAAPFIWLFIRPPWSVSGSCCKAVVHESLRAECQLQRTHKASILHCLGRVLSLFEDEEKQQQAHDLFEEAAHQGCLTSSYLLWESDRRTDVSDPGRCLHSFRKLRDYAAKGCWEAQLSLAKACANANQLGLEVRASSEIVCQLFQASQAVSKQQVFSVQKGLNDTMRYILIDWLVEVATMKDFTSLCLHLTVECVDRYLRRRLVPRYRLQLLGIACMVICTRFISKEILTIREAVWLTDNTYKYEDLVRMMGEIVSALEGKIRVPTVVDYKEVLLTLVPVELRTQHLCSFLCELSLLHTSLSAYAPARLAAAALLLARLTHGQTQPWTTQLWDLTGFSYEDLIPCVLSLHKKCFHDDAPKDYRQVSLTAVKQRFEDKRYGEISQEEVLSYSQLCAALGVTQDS
YKVKRRLVYGADD [F9Y]: 8.52
YKVKRRLVFVADD [G10V]: 7.83
YKVTRRLVFGADD [K4T]: 8.55
YKVKRRLVFDADD [G10D]: 8.38
YKVKRRLVFGSDD [A11S]: 8.61
YKVKYRLVFGADD [R5Y]: 1.13
YKVKARLVFGADD [R5A]: 3.21
YKVKRRLVEGADD [F9E]: 1.24

Mixed results
CC(C)(C)c1cc(C=C(C#N)C#N)cc(Br)c1O  remaining activity (Cyclin-dependent kinase 6, with cyclin D1 (CDK6, Homo sapiens, UniProt Q00534); enzyme activity, inhibitor; 0.5 µM): 99.1%
CC[C@@H](C)c1nc2cc(Nc3ccnc4ccc(S(=O)(=O)C(C)C)cc34)ccc2s1.Cl  survival (L929 RIPK3-/- reexpressing RIPK3 K51A; CCK-8; 6.25 µM, with: zVAD): 100% and 105% and 84% and 110%
O=C1NC(=O)c2c1c1c3ccccc3n3c1c1c2c2ccccc2n1[C@H]1CC[C@@H]3O1  remaining activity (Protein kinase C gamma type (PRKCG, Homo sapiens, UniProt P05129); enzyme activity, inhibitor; 0.5 µM; baseline: control): 32.8%

Repeated from above (sample 2):
ILFDRLPIA: inactive
FFIQTDAAI: inactive
DTDPLPVVF: inactive
